Assay results gathered from unrelated publications.
Lines come from different studies, so protocols differ. Numbers after ± are the reported error.
UCHL1: Ubiquitin carboxyl-terminal hydrolase isozyme L1 (UCHL1, Homo sapiens, UniProt P09936)
Sequence of UniProt P09936 (whole entry, looked up): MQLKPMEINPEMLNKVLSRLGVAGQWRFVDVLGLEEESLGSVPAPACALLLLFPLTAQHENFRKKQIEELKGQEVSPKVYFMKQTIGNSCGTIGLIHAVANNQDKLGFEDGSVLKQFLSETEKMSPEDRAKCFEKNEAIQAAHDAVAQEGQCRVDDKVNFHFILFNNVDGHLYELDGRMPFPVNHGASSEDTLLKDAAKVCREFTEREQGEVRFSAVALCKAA

Compound = O=C1CCc2cc(C(=O)CCl)ccc2N1; tested on = UCHL1; test = covalent, intact protein LC-MS; setting = 12.5 µM; endpoint = labelling; result = 31.5%
Compound = CCc1ccc(C(=O)Oc2ccc(C#N)c(F)c2)cc1; test system = human mother-newborn pairs, cord serum; endpoint = mean serum concentration; result = 2.34 ng/mL
Compound = C[C@@H](O)CCOC(=O)C[C@@H](C)O; test system = human; setting = oral drink, dose not given, 60 min post dose, mean; endpoint = mean arterial pressure; result = 80 mmHg
Compound = N#Cc1ccc2c(c1)[C@H]1CCCN(C(=O)c3ccc4[nH]cnc4c3)[C@H]1C2; test system = human; setting = 240 mg, end of trial; endpoint = mean ACTH level; result = 5.7 pmol/L
Compound = C[C@H](CCC(=O)O)[C@H]1CC[C@H]2[C@@H]3[C@H](O)C[C@@H]4C[C@H](O)CC[C@]4(C)[C@H]3C[C@H](O)[C@]12C; test system = human, plasma; setting = control; endpoint = mean daily plasma concentration; result = 45.3 ± 9.3 nM
Compound = CCCC1CCC(c2ccc(-c3ccc(F)c(F)c3)cc2)CC1 (centres unmarked); test system = human mother-newborn pairs, female, maternal serum; endpoint = mean serum concentration; result = 0.59 ng/mL
Compound = Cc1ccc(O)c(-n2nc3ccccc3n2)c1; test = exposure assessment; test system = human, age 16-21 years; setting = foundation; endpoint = mean daily dermal uptake; result = 92.7 ng/kg body weight/day
Compound = Cc1ccc(Sc2ccccc2N2CCNCC2)c(C)c1; test system = healthy male humans fasted, plasma; setting = oral, 10 mg single; endpoint = mean AUC(0-168 h); result = 290 ng·h/mL
Compound = CC=CC1CCC(C2CCC(CCC)CC2)CC1 (centres unmarked); test system = human mother-newborn pairs, cord serum; endpoint = mean serum concentration; result = 1.51 ng/mL
Compound = C=CC(=O)N(C)CCOc1c(N)ncnc1-c1cc(F)cc(NC(=O)c2ccc(C3CC3)cc2F)c1C; test system = human, whole blood; setting = oral, 600 mg, single ascending dose; endpoint = mean residence time; result = 5.8 h
Compound = CCNCCCNC/C=C\CNCCCNCC; test = LC-MS/MS; test system = human cancer patients, plasma; setting = intravenous infusion 60 min, 150 mg, median, cycle 1; endpoint = mean residence time; result = 1.15 h
Compound = CC#CC(=O)NC1CCCN(C(=O)c2cccc(Cl)c2)C1 (centres unmarked); tested on = UCHL1; test = covalent, intact protein LC-MS; setting = 12.5 µM; endpoint = labelling; result = 13.2%
Compound = CCCCc1ccc(C#Cc2ccc(OCC)cc2)cc1; test system = human mother-newborn pairs, maternal serum; endpoint = mean serum concentration; result = 0.4 ng/mL
Compound = Cn1cc(-c2cn3nccc3c(-c3cnn([C@]4(CC#N)C[C@@H](C#N)C4)c3)n2)cn1; test system = healthy human fasted; setting = 1600 mg single dose; endpoint = mean residence time; result = 9.4 h

For quick reference, copied from above:
Compound = CCc1ccc(C(=O)Oc2ccc(C#N)c(F)c2)cc1; test system = human mother-newborn pairs, cord serum; endpoint = mean serum concentration; result = 2.34 ng/mL
Compound = C[C@@H](O)CCOC(=O)C[C@@H](C)O; test system = human; setting = oral drink, dose not given, 60 min post dose, mean; endpoint = mean arterial pressure; result = 80 mmHg
